Measurements from different studies.
Numbered parts are unrelated; each lists some results of a single study.

Set 1
Target: Sal-like protein 4, full length isoform B (SALL4, Homo sapiens, UniProt Q9UJQ4-2, residues 1-616)
Technique: universal PBM
Molecule type: double-stranded DNA, one strand shown
Sample: in vitro
Tested at: not given
Notes: 8-mer, flanks averaged, mean of replicates
Reading: higher = stronger binding
Construct (chain): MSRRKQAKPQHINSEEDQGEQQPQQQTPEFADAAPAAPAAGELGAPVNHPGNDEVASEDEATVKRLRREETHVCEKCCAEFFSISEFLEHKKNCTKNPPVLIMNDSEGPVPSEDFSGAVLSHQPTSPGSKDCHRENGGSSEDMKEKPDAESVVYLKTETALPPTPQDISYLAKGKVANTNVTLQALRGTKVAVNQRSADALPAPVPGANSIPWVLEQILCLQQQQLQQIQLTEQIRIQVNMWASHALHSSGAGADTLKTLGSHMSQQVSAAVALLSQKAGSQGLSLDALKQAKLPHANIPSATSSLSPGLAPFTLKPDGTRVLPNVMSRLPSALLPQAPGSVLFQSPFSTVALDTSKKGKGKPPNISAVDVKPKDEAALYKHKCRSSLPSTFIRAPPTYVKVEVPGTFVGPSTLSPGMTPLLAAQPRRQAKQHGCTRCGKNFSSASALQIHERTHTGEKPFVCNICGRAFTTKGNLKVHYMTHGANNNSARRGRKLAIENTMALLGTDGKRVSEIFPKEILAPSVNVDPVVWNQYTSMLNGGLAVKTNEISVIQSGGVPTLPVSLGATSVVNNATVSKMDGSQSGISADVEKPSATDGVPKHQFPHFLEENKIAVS
Oligonucleotide	E-score
ACGGGTGG	-0.326
GGAATGAA	0.0813
CGATCGCG	-0.0876
GATACAAA	0.229
CGGGGAAG	-0.226
AGCTCGCG	-0.122
GGTGTCGA	-0.195
AAACCTCC	-0.119
ATGCGGTA	-0.0422
AAGATGCT	0.00115
CAATCTTC	0.0579
TGTGTAAA	0.301
CCCCTTTC	-0.106
ACCTAGCA	0.0199
AAGCAAAG	0.141
CGTCTGCA	-0.0772
ACGGCTGA	-0.14
CGCCGAGA	-0.231
TTGATCAA	0.191
CGATAAAA	0.256
GGGCGTGA	-0.239
GAAACTCA	0.0686
ACCTGACG	-0.162
CCCCGCTC	-0.273
ATGTTGGA	0.0573

Set 2
Target: RNA binding protein fox-1 homolog 2, RRM domain, GST-SBP tag (RBFOX2, Homo sapiens, UniProt O43251-10, residues 100-194)
Technique: RNA Bind-n-Seq
Molecule type: RNA
Sample: in vitro
Tested at: 365 nM
Notes: natural RNA segment, single round, ends assumed
Reference: no-protein control
Reading: higher = stronger binding
Target sequence (chain): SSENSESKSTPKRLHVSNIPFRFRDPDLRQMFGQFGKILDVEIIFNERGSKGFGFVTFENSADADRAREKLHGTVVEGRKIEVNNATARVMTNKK
Oligonucleotide	RBNS enrichment (R)
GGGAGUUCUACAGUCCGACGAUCGCCCUCUGGAGUCCCCUACCAUGACUGAAGGCGCCAGAGACUGGCGGUGUCUUAAGACUCCGGGCACCGCCACGCGCUGUCAAGCAACACUCUGCGGACCUGCCGGCGUAUGGAAUUCUCGGGUGCCAA	0.394
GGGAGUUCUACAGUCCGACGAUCCUCAGUUCCUUCAUUCAGAUGGUUGGGUACGUGCUUGUGGCUGAGGAAGGGCGGGUGGUGUGGACAGUGUGUCAGGAGUGGUGUCACACGUGUCACACUGUUUGGAGGGGUGGAAUUCUCGGGUGCCAA	3.14
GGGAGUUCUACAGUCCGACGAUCGGUUCCCUAGCAACCAGCCCAGCAUUGGGUCCAGUUUUCAGCAACCAGUUAGAUUCUUGCUCCCAGAUUGACUGUUAGUUUUCAGGAAACAAGGCUAUCUUUGGUCAUAUUGGAAUUCUCGGGUGCCAA	0.247
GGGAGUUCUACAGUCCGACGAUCUUUCUUCUCCCAAUGCCUCUUGCUGGAAGCACUCUAUACCUCUCCACCUCCCUGGACUACUAAGCUGGAGACCUACUGGCCACAUGUCUGAAAAAAUGUUCCCUGGCUAGUGGAAUUCUCGGGUGCCAA	0.793
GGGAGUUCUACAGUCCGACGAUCAAGGCCAGGGCAGAGGGCCUCACCGCCUCCCGGGCCUGCUGUCAGCUUGCAGCCCGGGGACAGAGGCCAGCUGGGAUCUGCCUGAGGACAGAGAACAUGGUCUCCUGCAGUGGAAUUCUCGGGUGCCAA	0.517
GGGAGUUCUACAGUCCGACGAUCGACUUCCAGAUGGUCUCCCGAACCGCCUGGCUCUGCCGGCGCCCUCCUCACGUCAGGAGCAAGCAGCCGUGGACCCCUAAGCCGAGCUGGUGGAAGGCCCCUCCCCAUCGUGGAAUUCUCGGGUGCCAA	0.271
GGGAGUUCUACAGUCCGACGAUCGGGGAAAAAGGGUAGUUUGUUUCAUACUUUUGGAAUUUUUUUUCAGUGAAAAAUAACUGAAGUUCAUGGUUUUUAAAAAAGGUGAUGAUUCCUUUUAUGCUAUCACACACUGGAAUUCUCGGGUGCCAA	1.05
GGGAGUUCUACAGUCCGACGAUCCUGGAACAGUUUCCUUCUCUGCUUUUGACUUUAAAUCCCUGGGUGUCCCCCAGGAGUCAGUUUGCUAGUGGAUAAUGGAGGAGGUUCUACACUGACCCAGAGGCAUAGGAUGGAAUUCUCGGGUGCCAA	0.296
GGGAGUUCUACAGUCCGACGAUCACUAACCCCACUCCCAUGAAGAAUUGCCUGGAAAGAUGUUUUCAAGGAAUUUGAACCAUAAAACACUAUCUGAUGCACAGAACACCUCUACUUUGAGACUCACCUCUCAUUGGAAUUCUCGGGUGCCAA	0.625
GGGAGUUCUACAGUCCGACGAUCGGGGAGGGACAAGGGAUUCUGGGAAGCUUGAGCCUCCCCCAAAGCAAUGUGAGUCCCAGAGCCCGCUUUUGUUCUUCCCCACAAUUCCAUUACUAAGAAACACAUCAAAUUGGAAUUCUCGGGUGCCAA	0.478
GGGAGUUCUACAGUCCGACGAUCCGCAGUAAACAACAGAGGGGUUGCUGGACUUGAGGGUGACGAGACAGAUGAUCAUAGCAGGGAUUUGAAAUAUGAAUUAUGGUUACAUGGUCCUGAUUUUUUUUUUUUGGUGGAAUUCUCGGGUGCCAA	1
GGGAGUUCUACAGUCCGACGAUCCUGGUGCCGGCCUUGCCUGCAGCAAUGUAGCUGAGGACUGGUCUGAAGGCCAGGAGCCCUGUGCUCUUGACAUCACUGUACUCCCUCUCCCUCCCCGCAACCCUGCCCCAUGGAAUUCUCGGGUGCCAA	0.464

Set 3
Target: Histone acetyltransferase KAT6A, both winged helices, GST fusion (KAT6A, Homo sapiens, UniProt Q92794, residues 1-181)
Technique: protein binding microarray
Molecule type: double-stranded DNA, one strand shown
Sample: in vitro
Tested at: not given
Notes: 8-mer, flanks averaged, mean of 2 arrays, mostly near background
Reference: not given
Reading: higher = stronger binding
Residues (chain): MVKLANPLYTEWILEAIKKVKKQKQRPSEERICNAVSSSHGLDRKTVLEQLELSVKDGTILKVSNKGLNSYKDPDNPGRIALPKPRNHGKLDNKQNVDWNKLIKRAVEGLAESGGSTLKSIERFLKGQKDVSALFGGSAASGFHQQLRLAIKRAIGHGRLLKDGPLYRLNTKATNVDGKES
Oligonucleotide	E-score
GATCCATA	0.0351
ATGTTGAG	0.111
CGTCCAAA	0.0728
GCTCACGA	-0.00545
ACTCATTA	-0.0036
ACGATCCT	-0.15
CCGAGGCA	0.0148
GCGATTGA	0.0477
CCTGAAAC	0.0755
AGTCTGCG	0.0197
AACGGTTC	0.168
TGACTAAA	-0.124
CTTGGTTC	-0.0168
AACGTGCA	-0.139
CCGCAGCG	0.241
ATTACCAA	-0.0275
AGGGTAAG	-0.138
GTTAAACA	0.0137
GGGCTGCA	-0.0595
CCGATCAG	0.103
GAGAACGA	-0.0589
CCTGTACA	0.0134
AATCAAGC	0.0329
ACATTCCG	0.11
GTAAATAA	-0.108

Set 4
Target: Phosphate system positive regulatory protein PHO4, full length, GST-tagged (PHO4, Saccharomyces cerevisiae, UniProt P07270, residues 1-312)
Technique: competition protein-binding microarray
Molecule type: double-stranded DNA, one strand shown
Sample: in vitro
Tested at: 2 µM
Notes: whole 60-bp probe, lowest competitor level
Added: Cbf1 competitor, 0.05 µM
Reading: higher = stronger binding
Construct (chain): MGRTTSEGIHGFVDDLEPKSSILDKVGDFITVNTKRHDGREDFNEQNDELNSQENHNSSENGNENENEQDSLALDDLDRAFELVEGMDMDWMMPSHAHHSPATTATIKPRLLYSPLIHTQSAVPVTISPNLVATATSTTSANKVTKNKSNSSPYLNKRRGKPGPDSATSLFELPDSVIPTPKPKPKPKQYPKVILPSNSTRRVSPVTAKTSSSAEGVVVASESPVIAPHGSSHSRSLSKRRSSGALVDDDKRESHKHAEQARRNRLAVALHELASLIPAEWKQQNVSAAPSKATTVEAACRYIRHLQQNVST
Oligonucleotide	fluorescence intensity [a.u.]
ACACCTGGGTTTCCGCACGTGTTTCACCATCCCAAAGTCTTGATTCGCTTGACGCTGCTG	18000
CTAACGAAGGTTTGGCTGGTGGGTGACAAGCCAAGTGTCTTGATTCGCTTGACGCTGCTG	3010
CTTTCCCGATCTTGTCACGCTACTTTAGCACATTTGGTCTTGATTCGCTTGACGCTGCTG	5790
TTTCCGCGATGCAGCACCGTGCGGAGAGATCCCAATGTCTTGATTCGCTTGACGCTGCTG	8750
CGAAAGAGAGGTTGCCACGTTTTCCCGACGGCTGCTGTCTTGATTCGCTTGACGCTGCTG	15000
CTCCACCTCGACCATCACGTCCACTTTGCTGCTAACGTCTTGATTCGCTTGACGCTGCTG	5490
AAAGCGGTAATTTGTTTGGTGGGTGCAGATATCTATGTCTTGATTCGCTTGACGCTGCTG	4240
CATACCCAACCTTTCCACGTGTTTTAAGATATTTGTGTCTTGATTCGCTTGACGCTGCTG	18900
AAAGCGGTAATTTGAAACGTGGGTGCAGATATCTATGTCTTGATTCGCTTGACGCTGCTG	14000
TAAGTTCCAGCTCTTCACGTGCTTTTGCTTCTCTCAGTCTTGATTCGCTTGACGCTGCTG	13800
GGAAGTCCACACCGAAGTGTGACGGCTGAGTCTGTGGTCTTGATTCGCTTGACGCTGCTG	4730
TAATCAATGGGTTTGCATGTGGTAATCAATTGATAAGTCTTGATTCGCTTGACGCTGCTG	9360
CTTTCCCGATCTTGTGTGGTGGGTGTAGCACATTTGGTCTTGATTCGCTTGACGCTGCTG	5770
TAGGGGCACTCTAACCTCGTGTAACGCGTAACCTTCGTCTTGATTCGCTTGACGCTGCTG	9350
CTAACGAAGGTTTGTATTGTGGGTGACAAGCCAAGTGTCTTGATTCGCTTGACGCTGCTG	4090
TCCGCGATCGCCGGCCACGGGCCGTCGGCGGCTGTTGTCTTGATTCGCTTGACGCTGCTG	6350
CCGGCGCGGTCGTACATCGTGACGGTCCTGCGCTGGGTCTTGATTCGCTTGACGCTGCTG	6640
TGAATCTAGACCGTCATCGTGCGGACTCCTAGATCCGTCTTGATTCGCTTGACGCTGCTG	8160
TGTATCCTTTGTAGGCTCGTGCTGTATCAACCTACTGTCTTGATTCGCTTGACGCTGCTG	11200

Set 5
Target: Max-binding protein MNT, bHLH-zipper, MAX partner unstated (MNT, Homo sapiens, UniProt Q99583, residues 220-300)
Technique: protein-binding microarray
Molecule type: double-stranded DNA, one strand shown
Sample: in vitro
Tested at: not given
Notes: k-mer, scored over probes, only values ≥0.25
Reading: higher = stronger binding
Residues (chain): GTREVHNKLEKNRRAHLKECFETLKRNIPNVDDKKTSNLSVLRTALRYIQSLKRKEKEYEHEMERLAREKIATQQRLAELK
Oligonucleotide	E-score
CGTGATTC	0.3
ATGCACTC	0.27
CATGTGGC	0.472
CTGCGCAC	0.254
CGCGCGCG	0.304
CGTGGGAG	0.322
CCCCGCCG	0.338
CGTGGCCC	0.38
CTCATGGA	0.271
ACTCTCCC	0.284
ACGTGATC	0.384
ACCTCATG	0.397
GCGCACGC	0.401
CGTGTAGA	0.279
AACATGGG	0.289
ACGACGTG	0.371
CTCCACGC	0.392
CCAGGCAC	0.298
CACATGCC	0.434
CCACCCCA	0.398
ATGTGACC	0.327
CACGCTGG	0.382
CCCACGGC	0.253
ACGTGAGT	0.397
ACGTGGGA	0.438

A few entries again (set 3):
Oligonucleotide	E-score
ATGTTGAG	0.111
GTAAATAA	-0.108
AATCAAGC	0.0329
CTTGGTTC	-0.0168
AGTCTGCG	0.0197
CCGAGGCA	0.0148
CCTGTACA	0.0134
